Measured values pooled from the literature.
Each numbered part is a random draw from the data of one study; scales do not carry over between parts.

Series 1
Target: Interferon regulatory factor 7, full length, phosphomimetic (IRF7, Homo sapiens, UniProt Q92985, residues 1-503, S471D/S472D/S475D/S476D/S477D/S483D/S484D/S487D)
UniProt Q92985, sequence (whole entry, unmodified, looked up): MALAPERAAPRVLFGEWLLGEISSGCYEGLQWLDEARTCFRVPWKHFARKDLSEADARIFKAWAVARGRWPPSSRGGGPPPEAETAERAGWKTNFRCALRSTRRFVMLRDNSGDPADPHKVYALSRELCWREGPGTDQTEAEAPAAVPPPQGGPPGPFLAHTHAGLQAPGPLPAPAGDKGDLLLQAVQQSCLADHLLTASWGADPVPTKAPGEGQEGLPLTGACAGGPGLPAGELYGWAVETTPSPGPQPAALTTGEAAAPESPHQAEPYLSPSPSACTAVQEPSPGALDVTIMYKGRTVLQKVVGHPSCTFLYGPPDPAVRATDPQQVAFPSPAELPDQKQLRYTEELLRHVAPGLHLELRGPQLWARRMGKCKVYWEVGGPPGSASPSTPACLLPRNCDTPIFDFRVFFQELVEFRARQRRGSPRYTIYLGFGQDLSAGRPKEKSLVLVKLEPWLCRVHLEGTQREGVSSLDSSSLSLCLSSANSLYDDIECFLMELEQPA
Method: protein-binding microarray
Form: double-stranded DNA, one strand shown
Sample: in vitro
Concentration: 2200 nM top
Notes: 60-bp whole probe
Added: salmon DNA 0.4 mg/ml
Baseline: random background probes
Reading: higher = stronger binding
Constant ends, left off below: GCCTAGCAC … GTCTTGATTCGCTTGACGCTGCTG
Oligonucleotide | fitted relative affinity
GACGGCATCGGGTATCGGGACGTGCTA | -0.824 z-score
TCATGTTTGAGAAATCAGACTGTGCTA | 0.1 z-score
TATAGGTTGTTTCTAATATTGTGCTAG | 0.686 z-score
GACGGACTGCTTTTCATGACGTGCTAG | 0.359 z-score
TCAAGTCTGGGCTACAACTTGGTGCTA | -0.413 z-score
TTAGGTATCGGGACTGGGTTAGTGCTA | -0.245 z-score

Series 2
Target: Sal-like protein 4, full length isoform A (SALL4, Homo sapiens, UniProt Q9UJQ4, residues 1-1053)
UniProt Q9UJQ4, sequence (whole entry, looked up): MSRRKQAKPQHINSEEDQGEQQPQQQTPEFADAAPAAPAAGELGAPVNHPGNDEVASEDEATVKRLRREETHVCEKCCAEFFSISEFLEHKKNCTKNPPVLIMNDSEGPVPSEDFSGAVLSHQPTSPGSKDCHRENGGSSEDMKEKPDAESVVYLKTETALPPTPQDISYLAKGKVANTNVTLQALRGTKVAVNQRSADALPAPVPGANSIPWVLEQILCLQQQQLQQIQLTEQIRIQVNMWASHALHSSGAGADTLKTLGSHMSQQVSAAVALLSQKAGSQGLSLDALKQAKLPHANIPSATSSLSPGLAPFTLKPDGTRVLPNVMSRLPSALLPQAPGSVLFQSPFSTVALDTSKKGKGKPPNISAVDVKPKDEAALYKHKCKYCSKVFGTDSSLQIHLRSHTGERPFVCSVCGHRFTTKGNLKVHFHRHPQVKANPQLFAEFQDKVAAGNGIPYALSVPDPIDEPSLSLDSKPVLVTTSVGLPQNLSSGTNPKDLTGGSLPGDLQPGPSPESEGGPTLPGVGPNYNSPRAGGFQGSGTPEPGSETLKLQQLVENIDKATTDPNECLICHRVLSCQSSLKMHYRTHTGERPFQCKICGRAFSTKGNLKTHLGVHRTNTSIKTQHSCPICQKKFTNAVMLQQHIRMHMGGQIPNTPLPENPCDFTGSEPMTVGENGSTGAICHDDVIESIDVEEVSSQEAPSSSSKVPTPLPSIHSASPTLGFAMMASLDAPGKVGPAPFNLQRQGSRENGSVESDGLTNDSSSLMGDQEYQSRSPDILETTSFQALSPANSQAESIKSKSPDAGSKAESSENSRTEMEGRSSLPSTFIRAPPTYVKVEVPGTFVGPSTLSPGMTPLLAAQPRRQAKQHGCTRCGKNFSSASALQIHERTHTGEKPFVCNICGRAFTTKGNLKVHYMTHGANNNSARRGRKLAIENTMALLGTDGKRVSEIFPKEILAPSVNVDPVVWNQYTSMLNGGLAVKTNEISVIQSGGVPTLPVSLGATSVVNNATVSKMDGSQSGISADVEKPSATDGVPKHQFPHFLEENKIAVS
Method: universal PBM
Form: double-stranded DNA, one strand shown
Sample: in vitro
Concentration: 600 nM
Notes: 8-mer, flanks averaged, mean of replicates
Reading: higher = stronger binding
Oligonucleotide | E-score
TATGTGCA | 0.164
CGTACTAG | -0.0436
ATGAGCGA | 0.0602
ACTTCCTG | -0.0523
CAGGGAGA | -0.259
AGGTTGCG | -0.163

Series 3
Target: Histone acetyltransferase KAT6A, both winged helices, GST fusion (KAT6A, Homo sapiens, UniProt Q92794, residues 1-181)
Method: protein binding microarray
Form: double-stranded DNA, one strand shown
Sample: in vitro
Concentration: not given
Notes: 8-mer, flanks averaged, mean of 2 arrays, mostly near background
Baseline: not given
Reading: higher = stronger binding
Construct (chain): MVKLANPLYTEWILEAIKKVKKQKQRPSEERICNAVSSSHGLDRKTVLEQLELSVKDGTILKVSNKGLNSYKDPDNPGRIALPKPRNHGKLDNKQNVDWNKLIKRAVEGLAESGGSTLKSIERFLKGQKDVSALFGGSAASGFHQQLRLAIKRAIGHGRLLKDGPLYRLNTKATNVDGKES
Oligonucleotide | E-score
CAACGGTA | 0.121
ACTACAAG | -0.126
AATTCCCG | 0.232
AAGGCAAT | -0.198
GAAACTGC | 0.0764

Mixed results
Substance | target | assay | test system | conditions | scale | endpoint | result
PhoQ, residues 284 288 289 292 302 303 AQGLTV | PhoP, residues 12 14 15 18 19 SYFRT (Escherichia coli, UniProt P23836) | Sort-seq, item: YFP reporter | E. coli | PhoQ-PhoP variant library, added: 10 µM Mg2+ | baseline: high Mg2+ state, higher = stronger signaling | fold induction | 0.782

Excerpt of the above (series 1):
Oligonucleotide | fitted relative affinity
TCAAGTCTGGGCTACAACTTGGTGCTA | -0.413 z-score
